Measurements gathered from unrelated publications.
Compare with care: the assays were run in different laboratories.
Organism: Staphylococcus aureus

| Compound | assay | system | setting | MIC |
| --- | --- | --- | --- | --- |
| CN[C@H](CC(C)C)C(=O)N[C@H]1C(=O)N[C@@H](CC(N)=O)C(=O)N[C@H]2C(=O)N[C@H]3C(=O)N[C@H](C(=O)N[C@H](C(=O)NCc4cn(CC(=O)N[C@H](C(=O)N[C@@H](CCN)C(=O)N[C@H]5CCNC(=O)[C@H]([C@@H](C)O)NC(=O)[C@H](CCN)NC(=O)[C@H](CCN)NC(=O)[C@H](CC(C)C)NC(=O)[C@@H](CC(C)C)NC(=O)[C@H](CCN)NC5=O)[C@@H](C)O)nn4)c4cc(O)cc(O)c4-c4cc3ccc4O)[C@H](O)c3ccc(c(Cl)c3)Oc3cc2cc(c3O[C@@H]2O[C@H](CO)[C@@H](O)[C@H](O)[C@H]2O[C@H]2C[C@](C)(N)[C@H](O)[C@H](C)O2)Oc2ccc(cc2Cl)[C@H]1O | broth microdilution | VISA LIM-2, tryptic soy broth | 20 to 24 h, 37 °C, 0.002% polysorbate 80 | 2 µg/mL |
| N=C(N)NCCC[C@@H]1NC(=O)[C@H](CCCNC(=N)N)NC(=O)[C@@H](CCCNC(=N)N)NC(=O)[C@@H](CCCNC(=N)N)NC(=O)[C@@H](C(c2ccccc2)c2ccccc2)NC(=O)[C@@H](Cc2c[nH]c3ccccc23)NC(=O)[C@@H](C(c2ccccc2)c2ccccc2)NC1=O |  | 1193193, MRSA |  | 4 µg/mL |
| Oc1c(Br)cc(Br)c2nc3cc(F)c(F)cc3nc12 | broth microdilution | 25923 |  | 0.3 µM |
| c1ccc(CCNC2CCCc3c2[nH]c2ccc(C4CCCCC4)cc32)cc1 (stereo not drawn) | broth microdilution | Mu50 VISA |  | 2 µg/mL |
| COc1ccc2ccc(O)c(/C=N/[C@H]3CCCC[C@H]3/N=C/c3cc(C)ccc3O)c2c1 | bacterial growth, broth microdilution | vancomycin-intermediate |  | > 40 µM |
| C#CCOc1ccc(CN[C@@]2(C)C[C@H](O[C@H]3[C@H](Oc4c5cc6cc4Oc4ccc(cc4Cl)[C@@H](O)[C@@H](NC(=O)[C@@H](CC(C)C)NC)C(=O)N[C@@H](CC(N)=O)C(=O)N[C@H]6C(=O)N[C@H]4C(=O)N[C@H](C(=O)N[C@H](C(=O)O)c6cc(O)cc(O)c6-c6cc4ccc6O)[C@H](O)c4ccc(c(Cl)c4)O5)O[C@H](CO)[C@@H](O)[C@@H]3O)O[C@@H](C)[C@H]2O)cc1OC |  | NRS402 VISA |  | 10 µM |
| CC[C@H](C)[C@H](NC(=O)CNC(=O)[C@H](CC(=O)O)NC(=O)[C@H](CCCNC(=N)N)NC(=O)[C@@H](NC(=O)[C@H](Cc1c[nH]cn1)NC(=O)[C@H](CCC(N)=O)NC(=O)CNC(=O)[C@@H](NC(=O)[C@H](CCCNC(=N)N)NC(=O)[C@H](CCC(=O)O)NC(=O)[C@@H](NC(=O)[C@H](CCCCN)NC(=O)[C@H](CCCCN)NC(=O)[C@H](Cc1ccccc1)NC(=O)[C@@H](NC(=O)[C@H](CCCCN)NC(=O)[C@H](Cc1c[nH]c2ccccc12)NC(=O)[C@@H](N)CCCCN)[C@@H](C)CC)[C@@H](C)CC)C(C)C)C(C)C)C(=O)N[C@H](C(=O)N[C@@H](CCCCN)C(=O)N[C@@H](C)C(=O)NCC(=O)N[C@@H](CO)C(=O)N[C@@H](C)C(=O)N[C@H](C(=O)N[C@@H](CCC(N)=O)C(=O)N[C@H](C(=O)N[C@H](C(=O)NCC(=O)N[C@@H](CCC(N)=O)C(=O)N[C@@H](C)C(=O)N[C@@H](C)C(=O)N[C@@H](C)C(=O)N[C@H](C(=O)N[C@@H](C)C(=O)N[C@@H](CCCCN)C(N)=O)[C@@H](C)CC)C(C)C)C(C)C)C(C)C)[C@@H](C)CC | broth microdilution |  | 18 h, 37 °C | > 8 µM |
| CSCC[C@H](NC=O)C(=O)N[C@@H](CCCNC(=N)N)C(=O)N[C@H](C(=O)NCC(=O)N[C@@H](CC(N)=O)C(=O)N[C@@H](C)C(=O)N[C@@H](CC(N)=O)C(=O)NCC(=O)N1CCN(c2cc3c(cc2F)c(=O)c(C(=O)O)cn3C2CC2)CC1)[C@@H](C)O | broth dilution | Newman |  | 80 µM |
| CC[C@H](C)[C@H](N)C(=O)N[C@@H](CCCNC(=N)N)C(=O)N[C@H](C(=O)N[C@@H](Cc1c[nH]c2ccccc12)C(=O)N[C@@H](Cc1ccccc1)C(=O)N[C@H](C(=O)N[C@@H](CCCCN)C(=O)N[C@H](C(=O)N[C@@H](CCCNC(=N)N)C(=O)N[C@@H](CCCCN)C(=O)N[C@@H](CCSC)C(=O)N[C@@H](CCCCN)C(=O)N[C@@H](C)C(=O)N[C@H](C(=O)N[C@@H](Cc1ccc(O)cc1)C(=O)N[C@@H](Cc1c[nH]cn1)C(N)=O)[C@@H](C)CC)C(C)C)[C@@H](C)CC)C(C)C | broth dilution | ATCC 25923, Mueller-Hinton broth | 24 h, 37 °C | 100 µM |

Repeated from above:
| Compound | assay | system | setting | MIC |
| --- | --- | --- | --- | --- |
| COc1ccc2ccc(O)c(/C=N/[C@H]3CCCC[C@H]3/N=C/c3cc(C)ccc3O)c2c1 | bacterial growth, broth microdilution | vancomycin-intermediate |  | > 40 µM |
